Measured values gathered from unrelated publications.
Each line is one published result; not all experiments were run side by side.
Target: Serine/threonine-protein kinase RIO1 (RIOK1, Homo sapiens, UniProt Q9BRS2)

For CNC1C[S+]2CC[S+]3CC[S+](C1)[Ru-4]321([N]=C=S)[n]2c3ccc(OC)cc3c3c4c(c5cc(F)c[n+]1c5c32)C(=O)NC4=O (centres unmarked), the remaining binding was 100% (KinomeScan; 0.1 µM; relative to: untreated).
The remaining binding of COc1cc(Nc2nc(C)cc(-c3cnn4nc(OC)ccc34)n2)cc(C(F)(F)F)c1 is reported as 89% (binding, competition with immobilised ligand; 1 µM).
Nc1ncc2c(n1)-c1c([nH]c3ccc(C4=CCOCC4)cc13)CCC2 gave a remaining binding of 100% (binding, competition with immobilised ligand; 1 µM).
C[C@]1(O)CCCN(c2nc(Nc3ccc(S(=O)(=O)N[C@H]4CC[C@H](CN5CCN(c6ccc(C7CCC(=O)NC7=O)cc6F)CC5)CC4)cc3)ncc2C(F)(F)F)C1 (some centres unmarked) gave a remaining binding of 2.7% (binding, competition with immobilised ligand; 1 µM).
The remaining binding of CNC(=O)C1CCN(c2cc(C)c(F)cc2NC(=O)c2ccc(-c3cc(O)ccc3C)c(C)c2)CC1 is reported as 100% (binding, competition with immobilised ligand; 1 µM).
With C=CC(=O)N1CCCC(n2c(=O)c3ncccc3n(Cc3ccc(Oc4ccccc4)cc3)c2=O)C1 (centres unmarked) the remaining binding was 94% (cell-free assay, competition with immobilised ligand; 1 µM).
CCN1CCN(Cc2ccc(C(=O)Nc3ccc(C)c(NCc4cnc5[nH]ccc5c4OC)c3)cc2C(F)(F)F)CC1 gave a remaining binding of 95% (binding, competition with immobilised ligand; 1 µM).
With C=CC(=O)N1CCc2ccc(-n3c(=O)ccc4cnc5ccc(-c6cnn(C)c6)cc5c43)cc21 the remaining binding was 64% (KINOMEscan; 1 µM; relative to: DMSO control).
For Cc1ccc(-c2c(/C=C(\C#N)C(=O)NC(C)C)n(CCCO)c3ncnc(N)c23)cc1, the remaining binding was 70% (cell-free assay, competition with immobilised ligand; 1 µM).
COc1cc(Nc2nccc(-c3cnn4nc(OC)ccc34)n2)cc(C(F)(F)F)c1 gave a remaining binding of 100% (binding, competition with immobilised ligand; 1 µM).
CC(C)=CC1OC(C)(C)C2C=C3C(=O)C(Cl)=CC(O)C3C3C(O)C4OC4C(=O)C132 (centres unmarked) gave a remaining binding of 52% (cell-free assay, competition with immobilised ligand; 10 µM).
With Cc1cc(NC(=O)[C@H](O)c2cc(F)cc(F)c2)ccc1-c1cnc(N)c(C(=O)NC(C)C)c1 the remaining binding was 43% (binding, competition with immobilised ligand; 1 µM).
With COc1c(Cl)cccc1Nc1c(-c2ccncc2C#C[C@@]2(C)CCCN2C(=O)/C=C/CN(C)C)[nH]c2c1C(=O)NCC2 the remaining binding was 91% (binding, competition with immobilised ligand; 3 µM).
For Cc1cnc2nc1Nc1cccc(c1)COC/C=C/COCc1cc(ccc1OCCN1CCOCC1)N2, the remaining binding was 100% (binding, competition with immobilised ligand; 0.1 µM).

Some of these lines once more:
For Cc1ccc(-c2c(/C=C(\C#N)C(=O)NC(C)C)n(CCCO)c3ncnc(N)c23)cc1, the remaining binding was 70% (cell-free assay, competition with immobilised ligand; 1 µM).
COc1cc(Nc2nccc(-c3cnn4nc(OC)ccc34)n2)cc(C(F)(F)F)c1 gave a remaining binding of 100% (binding, competition with immobilised ligand; 1 µM).
